Published values pooled from the literature.
Protocols differ between the studies behind these lines. Values joined by “and” are separate records of one study, mostly repeats; a detail may differ.

COc1ccc2c(c1)[C@]13CCCC[C@@H]1[C@H](C2)N(C)CC3 gave a T1/2 change of -19.9% (human female; dose not given, day 22; reference: day 0).
With CC(C)(C)N1CCC(c2ccccc2)(c2ccccc2)CC1 the cytotoxicity efficacy was 0% (Vero-E6; CellTiter-Glo ATP; concentration not given, 72 h, first round 5-point; reference: DMSO 0%, hyamine -100%, more negative, more toxic).
Cc1ncc2n1-c1ccc(Cl)cc1C(c1ccccc1F)=NC2 has a t1/2 of 4.4 h (human, plasma; oral, 2 mg, day 1).
With O=C(O)C(F)(F)C(F)(F)C(F)(F)C(F)(F)C(F)(F)C(F)(F)C(F)(F)F the t1/2 was 2770 h (two-compartment model; human, plasma; oral, 50 mg single dose, geometric mean).
For CCCCCCCCCCC(=O)O[C@H]1CC[C@H]2[C@@H]3CCC4=CC(=O)CC[C@]4(C)[C@H]3CC[C@]12C, the t1/2 was 16.2 h and 7.8 h and 4.5 h (measured: testosterone; human, plasma; oral, 237 mg).
Cc1nnc2n1-c1ccc(Cl)cc1C(c1ccccc1)=NC2 has a T1/2 change of 1.44% (human female; dose not given, day 22; reference: day 0).
CC(=O)c1c(C)c2cnc(Nc3ccc(C4CCN(CCS(C)(=O)=O)CC4)cn3)nc2n(C2CCCC2)c1=O has a t1/2 of 6.6 h (human, plasma; oral, 75 mg twice daily, day 1, single dose, with: fulvestrant).
COc1ccc2c(Sc3ccc(Cl)cc3)c(C(=O)NCCCN3CCCCC3)[nH]c2c1 gave a cytotoxicity efficacy of -75.6% (Vero-E6; CellTiter-Glo ATP; concentration not given, 72 h, retest 8-point duplicates; reference: DMSO 0%, hyamine -100%, more negative, more toxic).
For COC[C@@H](NC(C)=O)C(=O)NCc1ccccc1, the t1/2 was 12 h (fluorescence quenching; human healthy male, plasma; oral, 100 mg single).
With C[C@]1(CO)Cc2ncn(-c3ccc(C#N)c(Cl)c3)c2C(=O)O1 the t1/2 was 4.6 h (human; oral, 10 mg, fed, single dose, geometric mean).
The t1/2 of CCOC(=O)C1=C[C@@H](OC(CC)CC)[C@H](NC(C)=O)[C@@H](N)C1 is reported as 3.4 h (human, both sexes, plasma; oral, 150 mg, geometric mean, with: alcohol).
COc1ccc(C[C@@H]2NC(=O)[C@H]([C@@H](C)O)NC(=O)[C@@H]3[C@@H]4CCN3C(=O)[C@@H]3Cc5cn(c6ccc(F)cc56)CCCCCCN(Cc5ccc(cc5)CCNC(=O)[C@]5(C)CCCN5C2=O)C(=O)CCC(=O)N[C@@H](C)C(=O)N[C@H](CNC(=O)CCCCC[N+](C)(C)C)C(=O)N[C@@H](Cc2cccc(c2)CNC(=O)CO4)C(=O)N3)cc1 has a t1/2 of 56.8 h (human, plasma; oral, 100 mg, with: sodium caprate 1800 mg).
